{"data": "Assay results from different studies", "organism": "Staphylococcus aureus", "note": "Compare with care: the assays were run in different laboratories."}
{"SMILES": "CNC(CC(C)C)C(=O)NC1C(=O)NC(CC(N)=O)C(=O)NC2C(=O)NC3C(=O)NC(C(=O)NC(C(=O)O)c4cc(O)cc(O)c4-c4cc3ccc4O)C(O)c3ccc(c(Cl)c3)Oc3cc2cc(c3OC2OC(CO)C(O)C(O)C2OC2CC(C)(NC(=O)CCCCCC[N+]3(C)CCOCC3)C(O)C(C)O2)Oc2ccc(cc2Cl)C1O (stereo not shown)", "technique": "agar dilution", "strain": "MRSA clinical isolate MRSA3", "MIC": "512 µg/mL"}
{"SMILES": "O=C(CC1COC(=O)N1/N=C/c1ccc([N+](=O)[O-])o1)c1ccccc1 (stereo not shown)", "observed": "microbial growth", "technique": "broth dilution", "strain": "ATCC29213", "time": "18 h", "MIC": "> 50 µg/mL"}
{"SMILES": "O=C(O)CN1C(=O)/C(=C/c2ccc(-c3ccc(N(c4ccccc4)c4ccccc4)cc3)cc2)NC1=S", "technique": "broth microdilution", "strain": "ATCC 25923", "MIC": "3.9 µg/mL"}
{"SMILES": "CCc1nc(N)nc(N)c1C#CC(C)c1cccc(-c2cc(C)nc(C)c2)c1 (racemic)", "technique": "broth microdilution", "strain": "ATCC 43300", "time": "18 h", "temperature": "37 °C", "MIC": "0.156 µg/mL"}
{"SMILES": "C[n+]1ccn(CC([O-])c2ccccc2)[c]1[Ag-][I].[Na+] (stereo not shown)", "technique": "broth dilution", "strain": "ATCC 23235", "time": "18 h", "temperature": "37 °C", "MIC": "10 µg/mL"}
{"SMILES": "CC1C=CC=CC(C)C2C=CC3CC(C)(O)C(O)C(C)C3C2C(=O)C(Cl)(Cl)C(=O)C(C)C(=O)O1 (stereo not shown)", "observed": "microbial growth", "technique": "broth dilution", "strain": "NEWMAN", "MIC": "4 to 8 µg/mL"}
{"SMILES": "NC[C@@H]1O[C@H](O[C@H]2[C@@H](O)[C@H](O[C@@H]3[C@@H](O)[C@H](N)C[C@H](N)[C@H]3O[C@H]3O[C@H](CO)[C@@H](OCC(O)CO)[C@H](O)[C@H]3N)O[C@@H]2CO)[C@H](N)[C@@H](O)[C@@H]1O (stereo partly shown)", "technique": "broth microdilution", "strain": "MRSA isolate AG 038", "MIC": "16 to 32 µg/mL"}
{"SMILES": "CNCc1cc(N(C)C)c2c(c1O)C(=O)C1=C(O)[C@]3(O)C(=O)C(C(N)=O)=C(O)[C@@H](N(C)C)[C@@H]3C[C@@H]1C2", "strain": "RN4250, Tet K efflux", "MIC": "8 µg/mL"}
{"SMILES": "CCCCCCCCCc1nc2cc(F)ccc2c(=O)n1O", "technique": "broth microdilution", "strain": "RN6390B", "MIC": "100 µM"}
{"SMILES": "Cc1cc(O)cc2c1C(=O)c1c(cc3oc(=O)cc(-c4ccc(Cl)cc4)c3c1O)C2=O", "observed": "microbial growth", "MIC": "16 µg/mL"}
{"SMILES": "CC[P+](CC)(CC)[Au-][S][C@@H]1O[C@H](COC(C)=O)[C@H](OC(C)=O)[C@H](OC(C)=O)[C@H]1OC(C)=O", "technique": "broth microdilution", "strain": "JE2 (USA300)", "MIC": "0.04 µM"}
{"SMILES": "CCN(CC)CCCN1/C(=C/c2cc(C)[n+](C)c3ccccc23)Sc2ccccc21", "observed": "microbial growth", "technique": "broth dilution", "strain": "ATCC43300 MRSA", "MIC": "4 µg/mL"}
{"SMILES": "CNC(CC(C)C)C(=O)NC1C(=O)NC(CC(N)=O)C(=O)NC2C(=O)NC3C(=O)NC(C(=O)NC(C(=O)O)c4cc(O)cc(O)c4-c4cc3ccc4O)C(O)c3ccc(c(Cl)c3)Oc3cc2cc(c3OC2OC(CO)C(O)C(O)C2OC2CC(C)(NC(=O)CCCC[N+](C)(C)C)C(O)C(C)O2)Oc2ccc(cc2Cl)C1O (stereo not shown)", "technique": "agar dilution", "strain": "MRSA clinical isolate MRSA4", "MIC": "128 µg/mL"}
{"SMILES": "Oc1c(Br)ccc2cccnc12", "observed": "microbial growth", "technique": "agar dilution", "strain": "ATCC29213", "MIC": "35.7 µM"}
{"SMILES": "CN(C)c1cc(CN2CCCCCC2)c(O)c2c1C[C@H]1C[C@H]3[C@H](N(C)C)C(O)=C(C(N)=O)C(=O)[C@@]3(O)C(O)=C1C2=O", "observed": "microbial growth", "technique": "broth dilution", "MIC": "1 µg/mL"}
{"SMILES": "O=C(O)c1ccc(-n2cc(/C=N/Nc3cccc(Cl)c3F)c(-c3ccc4ccccc4c3)n2)cc1", "observed": "microbial growth", "strain": "MRSA", "MIC": "0.78 µg/mL"}
{"SMILES": "Cc1cc(/C=C2\\Sc3ccccc3N2CCCN2CCCC2)c2ccccc2[n+]1C", "observed": "microbial growth", "technique": "broth dilution", "strain": "ATCC43300 MRSA", "MIC": "32 µg/mL"}
{"SMILES": "Oc1c(Br)cc(Br)c2nc3cc(I)ccc3nc12", "technique": "broth microdilution", "strain": "MRSA 1707", "time": "16 h", "temperature": "37 °C", "MIC": "0.08 µM"}
{"SMILES": "CC(C)C[C@H](NC(=O)[C@H](CC(C)C)NC(=O)[C@H](CCCCN)NC(=O)[C@H](CC(C)C)NC(=O)[C@H](CC(C)C)NC(=O)[C@H](CCCCN)NC(=O)[C@H](CCCCN)NC(=O)[C@H](CC(C)C)NC(=O)[C@H](CC(C)C)NC(=O)[C@H](CCCCN)NC(=O)[C@H](CCCCN)NC(=O)[C@H](CC(C)C)NC(=O)[C@H](CC(C)C)NC(=O)[C@H](CCCCN)NC(=O)[C@@H](N)CC(C)C)C(N)=O", "strain": "MSSA RN 4220", "sample": "RPMI medium", "time": "24 h", "temperature": "37 °C", "MIC": "1.9 µM"}
{"SMILES": "CN(C)c1cc(CN2CCc3ccccc3C2)c(O)c2c1C[C@H]1C[C@H]3[C@H](N(C)C)C(O)=C(C(N)=O)C(=O)[C@@]3(O)C(O)=C1C2=O", "strain": "MRSA 5, Tet M ribosome protection", "MIC": "0.5 µg/mL"}
{"SMILES": "CCCCCCCCCc1nc2cc(Cl)ccc2c(=O)n1O", "technique": "broth microdilution", "strain": "RN6390B", "MIC": "50 µM"}
{"SMILES": "N#Cc1ccccc1Oc1ccc(Cl)cc1O", "observed": "microbial growth", "technique": "broth dilution", "MIC": "8 µM"}
{"SMILES": "COc1cc(Cc2cnc(N)nc2N)cc(/C=C/C(=O)N2N=Cc3ccccc3C2C=C(C)C)c1OC (stereo not shown)", "observed": "microbial growth", "technique": "broth dilution", "strain": "ATCC29213", "MIC": "0.125 µg/mL"}
{"SMILES": "CN(C)c1cc(CNCCC(C)(C)C)c(O)c2c1C[C@H]1C[C@H]3[C@H](N(C)C)C(O)=C(C(N)=O)C(=O)[C@@]3(O)C(O)=C1C2=O", "strain": "RN4250, Tet K efflux", "MIC": "2 µg/mL"}
{"SMILES": "CCCCO[C@H]1[C@H](O)[C@@H](N)[C@@H](O[C@H]2[C@H](O[C@@H]3O[C@H](CO)[C@@H](O[C@H]4O[C@@H](CN)[C@@H](O)[C@H](O)[C@H]4N)[C@H]3O)[C@@H](O)[C@H](N)C[C@@H]2N)O[C@@H]1CO", "technique": "broth microdilution", "strain": "MRSA isolate AG 045", "MIC": "16 µg/mL"}
{"SMILES": "CN(C)c1cc(CNCc2ccc(O)cc2)c(O)c2c1C[C@H]1C[C@H]3[C@H](N(C)C)C(O)=C(C(N)=O)C(=O)[C@@]3(O)C(O)=C1C2=O", "strain": "MRSA 5, Tet M ribosome protection", "MIC": "8 µg/mL"}
{"SMILES": "Cn1c(C23CC4CC(CC(C4)C2)C3)nn(CCN2CCCCC2)c1=S", "technique": "two-fold dilution", "strain": "IFO 3060", "time": "24 h", "temperature": "36 °C", "MIC": "1 µg/mL"}
{"SMILES": "CN(C)c1cc(CNC(C)(C)C)c(O)c2c1C[C@H]1C[C@H]3[C@H](N(C)C)C(O)=C(C(N)=O)C(=O)[C@@]3(O)C(O)=C1C2=O", "strain": "RN4250, Tet K efflux", "MIC": "4 µg/mL"}
{"SMILES": "CCn1cc(/C=C/c2sc3ccccc3[n+]2CC)c2ccccc21", "strain": "1466", "MIC": "1 µg/mL"}
{"SMILES": "CC(C)CNCc1cc(N(C)C)c2c(c1O)C(=O)C1=C(O)[C@]3(O)C(=O)C(C(N)=O)=C(O)[C@@H](N(C)C)[C@@H]3C[C@@H]1C2", "strain": "MRSA 5, Tet M", "sample": "50% human serum", "MIC": "2 µg/mL"}
{"SMILES": "NC[C@@H]1O[C@H](O[C@H]2[C@@H](O)[C@H](O[C@@H]3[C@@H](O)[C@H](N)C[C@H](N)[C@H]3O[C@H]3O[C@H](CO)[C@@H](CCO)[C@H](O)[C@H]3N)O[C@@H]2CO)[C@H](N)[C@@H](O)[C@@H]1O", "strain": "methicillin-resistant", "MIC": "1 µg/mL"}
